{"data": "Published values pooled from the literature", "method": "steady-state kinetics", "B1": "enzyme N488A (Limosilactobacillus reuteri, UniProt Q8GP32); chain SADTNIENNDSSTVQVTTGDNDIAVKSVTLGSGQVSAASDTTIRTSANANSASSAANTQNSNSQVASSAAITSSTSSAASSNNTDSKAAQENTNTAKNDDTQKAAPANESSEAKNEPAVNVNDSSAAKNDDQQSSKKNTTAKLNKDAENVVKKAGIDPNSLTDDQIKALNKMNFSKAAKSGTQMTYNDFQKIADTLIKQDGRYTVPFFKASEIKNMPAATTKDAQTNTIEPLDVWDSWPVQDVRTGQVANWNGYQLVIAMMGIPNQNDNHIYLLYNKYGDNELSHWKNVGPIFGYNSTAVSQEWSGSAVLNSDNSIQLFYTRVDTSDNNTNHQKIASATLYLTDNNGNVSLAQVANDHIVFEGDGYYYQTYDQWKATNKGADNIAMRDAHVIEDDNGDRYLVFEASTGLENYQGEDQIYNWLNYGGDDAFNIKSLFRILSNDDIKSRATWAAAAIGILKLNKDEKNPKVAELYSPLISAPMVSDEIERPNVVKLGNKYYLFAATRLNRGSNDDAWMNANYAVGDNVAMVGYVADSLTGSYKPLNDSGVVLTASVPANWRTATYSYYAVPVAGKDDQVLVTSYMTNRNGVAGKGMDSTWAPSFLLQINPDNTTTVLAKMTNQGDWIWDDSSENLDMIGDLDSAALPGERDKPVDWDLIGYGLKP", "B2": "enzyme (Solanum lycopersicum, UniProt O04161); chain MASAMTCSAAELFPHLGSSANATAAAEFICSRFSAVSEYLTNTTYAVDTTYLLFSAYLVFAMQLGFAMLCAGSVRAKNTMNIMLTNVLDAAAGGFSYYLFGFAFAFGAPSNGFIGKHFFGLKEFPSQAFDYSYFLYQWAFAIAAAGITSGSIAERTQFVAYLIYSSFLTGFVYPIVSHWFWSGDGWASASKTDGNLLLRFGVIDFAGSGVVHMVGGIAGLWGAFIEGPRIGRFDRSGRSVALRGHSASLVVLGTFLLWFGWYGFNPGSFLTILKSYDHTIRGTYYGQWSAIGRTAVTTTLAGCTAALTTLFCKRLLVAHWNVVDVCNGLLGGFAAITSGCAVVEPWAAIVCGFIAAWVLIGFNALAAKLKYDDPLEAAQLHGGCGSWGIIFTGLFAKKEYVNEVYPGFPNRPYGLFMGGGGKLLGAQVIQVVVIIGWVSVTMGPLFYLLHKFKLLRISRDDETAGMDLTRHGGFAYIYHDEDEGSSMPGFKMTRVEPTNTSTPDHQNRSVNVVV", "B3": "enzyme (Bacillus pumilus, UniProt A8FFI9); chain EARSIAWSVDEFFKNREGTFVIQEVKEKSPWVYNKKRAKERFAPQSTFKVANALIGLQTGAVRDEYDIKYWDGVKREIDNWNRDHTLGSGMRDSVVWYYQAMARDIGEERMNHWVKAIHYGNKDISGGIDQFWLSSTLRISPIEQVRFLKQLYEETLPFDLKNMRTVKRMMVQEEEKHATLYGKTGSGSDIGWYVGFIKHEHKTYILATNIKGTGIEAKDITYRILKKYHLMEASV", "B4": "protein E27A (uncultured bacterium HF130_AEPn_1, UniProt D0E8I5); chain MSLSNSSKVSVLISLLEKSRDLDYIGAAINQLEHSLQCAYFAQRSGADNEMVLAALLHDLGHYCNDTSFEDMGGYGVWQHEKVGADYLRGLGFSERVACLIEGHVAAKRYLVSSKASYLKNLSDASRKTLEYQGGPMDEGERRLFEEREDFKDCLKIRAWDEKGKQTDLKVPGPEHYRKMMEEHLSENQN", "B5": "enzyme Q449A (Limosilactobacillus reuteri, UniProt Q8GP32); chain SADTNIENNDSSTVQVTTGDNDIAVKSVTLGSGQVSAASDTTIRTSANANSASSAANTQNSNSQVASSAAITSSTSSAASSNNTDSKAAQENTNTAKNDDTQKAAPANESSEAKNEPAVNVNDSSAAKNDDQQSSKKNTTAKLNKDAENVVKKAGIDPNSLTDDQIKALNKMNFSKAAKSGTQMTYNDFQKIADTLIKQDGRYTVPFFKASEIKNMPAATTKDAQTNTIEPLDVWDSWPVQDVRTGQVANWNGYQLVIAMMGIPNQNDNHIYLLYNKYGDNELSHWKNVGPIFGYNSTAVSQEWSGSAVLNSDNSIQLFYTRVDTSDNNTNHQKIASATLYLTDNNGNVSLAQVANDHIVFEGDGYYYQTYDQWKATNKGADNIAMRDAHVIEDDNGDRYLVFEASTGLENYAGEDQIYNWLNYGGDDAFNIKSLFRILSNDDIKSRATWANAAIGILKLNKDEKNPKVAELYSPLISAPMVSDEIERPNVVKLGNKYYLFAATRLNRGSNDDAWMNANYAVGDNVAMVGYVADSLTGSYKPLNDSGVVLTASVPANWRTATYSYYAVPVAGKDDQVLVTSYMTNRNGVAGKGMDSTWAPSFLLQINPDNTTTVLAKMTNQGDWIWDDSSENLDMIGDLDSAALPGERDKPVDWDLIGYGLKP", "note": "Each line is one published result; not all experiments were run side by side. “And” joins repeats or separate records; there may be more than shown. Numbers after ± are the reported error.", "UniProt Q8ZMX2, sequence (whole entry, looked up)": "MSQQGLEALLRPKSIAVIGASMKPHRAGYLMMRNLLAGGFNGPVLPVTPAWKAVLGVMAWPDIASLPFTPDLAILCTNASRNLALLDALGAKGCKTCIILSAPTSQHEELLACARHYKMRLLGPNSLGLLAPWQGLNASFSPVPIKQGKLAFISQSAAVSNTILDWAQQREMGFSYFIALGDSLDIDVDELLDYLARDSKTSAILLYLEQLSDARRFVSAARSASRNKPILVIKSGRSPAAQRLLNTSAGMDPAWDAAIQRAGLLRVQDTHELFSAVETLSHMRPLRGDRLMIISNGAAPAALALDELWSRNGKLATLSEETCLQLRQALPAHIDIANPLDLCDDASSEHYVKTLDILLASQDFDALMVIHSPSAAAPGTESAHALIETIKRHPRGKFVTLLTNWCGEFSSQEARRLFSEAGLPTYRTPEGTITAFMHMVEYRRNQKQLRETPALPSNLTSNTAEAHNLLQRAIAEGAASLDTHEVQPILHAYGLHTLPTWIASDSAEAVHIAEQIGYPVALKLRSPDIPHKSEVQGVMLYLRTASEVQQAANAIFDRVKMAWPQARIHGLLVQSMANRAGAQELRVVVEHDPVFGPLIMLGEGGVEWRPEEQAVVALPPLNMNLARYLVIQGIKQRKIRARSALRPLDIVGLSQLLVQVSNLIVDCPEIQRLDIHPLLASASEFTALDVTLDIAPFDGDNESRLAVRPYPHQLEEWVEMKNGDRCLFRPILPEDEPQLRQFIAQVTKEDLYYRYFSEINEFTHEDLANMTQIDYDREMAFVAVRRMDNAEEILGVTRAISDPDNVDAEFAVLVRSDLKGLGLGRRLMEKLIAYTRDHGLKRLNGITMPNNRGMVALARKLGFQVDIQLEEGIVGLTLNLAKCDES", "UniProt J7SZ64, sequence (whole entry, looked up)": "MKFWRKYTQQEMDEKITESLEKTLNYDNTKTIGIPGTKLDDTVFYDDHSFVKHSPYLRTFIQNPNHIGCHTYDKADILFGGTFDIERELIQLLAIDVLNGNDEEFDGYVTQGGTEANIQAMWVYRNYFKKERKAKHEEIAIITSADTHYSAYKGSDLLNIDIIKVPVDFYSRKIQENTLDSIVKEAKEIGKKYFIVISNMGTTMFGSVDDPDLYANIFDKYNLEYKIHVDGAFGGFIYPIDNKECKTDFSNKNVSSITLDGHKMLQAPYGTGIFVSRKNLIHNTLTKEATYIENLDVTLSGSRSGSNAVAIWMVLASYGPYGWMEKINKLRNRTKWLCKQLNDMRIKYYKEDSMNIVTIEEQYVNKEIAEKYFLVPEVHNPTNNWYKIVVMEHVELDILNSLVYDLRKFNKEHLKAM", "UniProt P22303, sequence (whole entry, looked up)": "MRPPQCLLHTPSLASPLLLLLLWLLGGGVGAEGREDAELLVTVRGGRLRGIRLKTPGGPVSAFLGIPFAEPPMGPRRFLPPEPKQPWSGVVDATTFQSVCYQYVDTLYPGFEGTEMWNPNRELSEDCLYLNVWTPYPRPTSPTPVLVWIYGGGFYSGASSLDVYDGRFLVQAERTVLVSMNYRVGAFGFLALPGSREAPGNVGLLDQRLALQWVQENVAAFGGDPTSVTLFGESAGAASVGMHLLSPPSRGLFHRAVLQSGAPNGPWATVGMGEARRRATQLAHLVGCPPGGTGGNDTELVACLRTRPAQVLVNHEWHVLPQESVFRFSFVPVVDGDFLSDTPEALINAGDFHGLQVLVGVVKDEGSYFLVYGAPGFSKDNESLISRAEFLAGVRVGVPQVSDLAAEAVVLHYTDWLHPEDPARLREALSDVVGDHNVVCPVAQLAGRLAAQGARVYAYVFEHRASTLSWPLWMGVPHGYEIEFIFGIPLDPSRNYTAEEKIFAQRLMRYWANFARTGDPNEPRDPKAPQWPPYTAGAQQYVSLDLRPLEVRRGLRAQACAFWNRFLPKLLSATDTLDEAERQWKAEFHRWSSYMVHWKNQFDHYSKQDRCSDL"}
{"Molecule": "B1 (enzyme N488A)", "substrate": "OC[C@H]1O[C@@](CO)(O[C@H]2O[C@H](CO)[C@@H](O)[C@H](O)[C@H]2O)[C@@H](O)[C@@H]1O", "conditions": "pH 5.5, 50 °C, apparent", "measurement": "K0.5", "result": "19000 µM"}
{"Molecule": "ACHE (Homo sapiens, UniProt P22303)", "substrate": "CC(=O)SCC[N+](C)(C)C", "conditions": "pH 7.4", "measurement": "Km", "result": "2000 µM"}
{"Molecule": "aromatic amino acid decarboxylase (Clostridium sporogenes, UniProt J7SZ64)", "substrate": "N[C@@H](Cc1c[nH]c2c(Cl)cccc12)C(=O)O", "conditions": "pH 7, 37 °C, not purified, together with: PLP 40 µM", "measurement": "Vmax", "result": "0.6 µmol/min/mg"}
{"Molecule": "B2 (enzyme)", "substrate": "CN", "conditions": "not purified", "measurement": "K0.5", "result": "5600 µM"}
{"Molecule": "B3 (enzyme)", "substrate": "[H][C@]12SCC(COC(C)=O)=C(C(=O)O)N1C(=O)[C@H]2NC(=O)CCC[C@@H](N)C(=O)O", "conditions": "pH 7", "measurement": "kcat", "result": "0.093 ± 0.003 s⁻¹"}
{"Molecule": "GlcAK1 (Arabidopsis thaliana, UniProt A0A1I9LRK4)", "substrate": "Nc1ncnc2c1ncn2[C@@H]1O[C@H](COP(=O)(O)OP(=O)(O)OP(=O)(O)O)[C@@H](O)[C@H]1O", "conditions": "pH 7.5, 25 mM KCl, Hill fit, together with: 1 mM GlcA; 10 mM MgCl2", "measurement": "K0.5", "result": "555 µM"}
{"Molecule": "B4 (protein E27A)", "substrate": "NC[C@H](O)P(=O)(O)O", "conditions": "pH 7, 25 °C, NaCl 150 mM, together with: O2, Fe(II) 100 µM, ascorbate 100 µM", "measurement": "Km", "result": "4200 µM and 2350 µM"}
{"Molecule": "B5 (enzyme Q449A)", "substrate": "OC[C@H]1O[C@@](CO)(O[C@H]2O[C@H](CO)[C@@H](O)[C@H](O)[C@H]2O)[C@@H](O)[C@@H]1O", "conditions": "pH 5.5, 50 °C, apparent", "measurement": "K0.5", "result": "20000 µM"}
{"Molecule": "pat (Salmonella enterica, UniProt Q8ZMX2)", "substrate": "CC(=O)SCCNC(=O)CCNC(=O)[C@H](O)C(C)(C)COP(=O)(O)OP(=O)(O)OC[C@H]1O[C@@H](n2cnc3c(N)ncnc32)[C@H](O)[C@@H]1OP(=O)(O)O", "conditions": "pH 7.5, 37 °C, apparent, sigmoidal fit, together with: AcsC 400 µM", "measurement": "K0.5", "result": "10.3 µM"}
{"note": "Excerpt of the above:"}
{"Molecule": "pat (Salmonella enterica, UniProt Q8ZMX2)", "substrate": "CC(=O)SCCNC(=O)CCNC(=O)[C@H](O)C(C)(C)COP(=O)(O)OP(=O)(O)OC[C@H]1O[C@@H](n2cnc3c(N)ncnc32)[C@H](O)[C@@H]1OP(=O)(O)O", "conditions": "pH 7.5, 37 °C, apparent, sigmoidal fit, together with: AcsC 400 µM", "measurement": "K0.5", "result": "10.3 µM"}
